Measurements gathered from unrelated publications.
Protocols differ between the studies behind these lines. Values joined by “and” are separate records of one study, mostly repeats; a detail may differ. ± marks the error that the study gave.

| SMILES | test | test system | setting | half-life |
| --- | --- | --- | --- | --- |
| COc1ccc2[nH]c([S+]([O-])Cc3ncc(C)c(OC)c3C)nc2c1 (centres unmarked) |  | healthy Chinese, CYP2C19 *3/*3, plasma | oral, 20 mg single dose | 2.88 h |
| CN(C(=O)[C@H](Cc1ccccc1)NC(=O)CNC(=O)c1ccccc1)c1ccc(Cl)cc1 |  | human liver microsomes | 1 µM, pH 7.4, with: cobicistat 0.5 µM | > 2 h |
| O=C1[C@@H](O)[C@@H]2OC[C@@H](O2)[C@H]1O |  | sodium acetate buffer | 10 mM, pH 4.0, 70 °C, β-elimination | 11 h |
| CNCCC(Oc1ccc(C(F)(F)F)cc1)c1ccccc1 (centres unmarked) |  | whole body | oral, medium dose, depuration phase | 2190 h |
| N[C@@H](Cc1ccccc1)C(=O)NCC(=O)OC[C@H]1O[C@@H](n2cc(F)c(=O)[nH]c2=O)C[C@@H]1O |  | human small intestine homogenate | pH 7.4, 37 °C, protein 1000 µg/mL | 0.118 ± 0.005 h |
| N=C(Nc1ccc(OCCCCCCCCCCn2ccnc2)cc1)c1ccccn1 | LC-MS | human liver microsomes | 3 µM | 0.867 to 1.13 h |
| Cc1ccc(NC(=O)c2ccc(CN3CCN(C)CC3)cc2)cc1Nc1nccc(-c2cncc(-c3oncc3C)c2)n1 |  | Parkinson's disease patients, plasma | oral, 100 mg once daily, day 1, 7-day dosing, mean | 11.3 h |
| C/C=C1\NC(=O)[C@H]2CSSCC/C=C/[C@H](CC(=O)N[C@H](C(C)C)C(=O)N2)OC(=O)[C@H](C(C)C)NC1=O |  | advanced cancer patients, plasma | intravenous, 14 mg/m^2, geometric mean, with: rifampin 600 mg | 8.3 h |
| CC(C)C[C@H](N)C(=O)OC[C@H]1O[C@@H](n2cc(F)c(=O)[nH]c2=O)C[C@@H]1O |  | human pancreas homogenate | pH 7.4, 37 °C, protein 500 µg/mL | 0.28 ± 0.00167 h |
| CCOc1ccc(Cc2cc([C@@H]3S[C@H](CO)[C@@H](O)[C@H](O)[C@H]3O)c(OC)cc2C)cc1 |  | Japanese type 2 diabetes patients, plasma | oral, 5 mg single dose, eGFR 45-59 mL/min/1.73 m^2 | 11.2 ± 2.68 h |
| CS(=O)(=O)n1cc2c(n1)CN([C@H]1CO[C@H](c3cc(F)ccc3F)[C@@H](N)C1)C2 |  | healthy Japanese men, plasma | oral, 10 mg once weekly, day 15 | 144 h |
| CCC(CC)O[C@@H]1C=C(C(=O)O)C[C@H](N)[C@H]1NC(C)=O |  | healthy Indian subjects, fed, plasma | oral, 75 mg oseltamivir phosphate, test capsule formulation | 7.62 ± 1.07 h |
| CC[C@H](C)[C@H](NC(=O)[C@H](CCC(=O)O)NC(=O)[C@H](CO)NC(=O)[C@@H](NC(=O)[C@@H](N)CO)C(C)C)C(=O)N[C@@H](CCC(N)=O)C(=O)N[C@@H](CC(C)C)C(=O)N[C@@H](CCSC)C(=O)N[C@@H](Cc1cnc[nH]1)C(=O)N[C@@H](CC(N)=O)C(=O)N[C@@H](CC(C)C)C(=O)NCC(=O)N[C@@H](CCCCN)C(=O)N[C@@H](Cc1cnc[nH]1)C(=O)N[C@@H](CC(C)C)C(=O)N[C@@H](CC(N)=O)C(=O)N[C@@H](CO)C(=O)N[C@@H](CCSC)C(=O)N[C@@H](CCC(=O)O)C(=O)N[C@@H](CCCN=C(N)N)C(=O)N[C@H](C(=O)N[C@@H](CCC(=O)O)C(=O)N[C@@H](Cc1c[nH]c2ccccc12)C(=O)N[C@@H](CC(C)C)C(=O)N[C@@H](CCCN=C(N)N)C(=O)N[C@@H](CCCCN)C(=O)N[C@@H](CCCCN)C(=O)N[C@@H](CC(C)C)C(=O)N[C@@H](CCC(N)=O)C(=O)N[C@@H](CC(=O)O)C(=O)N[C@H](C(=O)N[C@@H](Cc1cnc[nH]1)C(=O)N[C@@H](CC(N)=O)C(=O)N[C@@H](Cc1ccccc1)C(=O)O)C(C)C)C(C)C |  | postmenopausal women, osteoporosis, plasma | subcutaneous, 56.5 µg once weekly | 0.957 to 2.06 h |
| CCC(CC)COC(=O)[C@H](C)N[P@](=O)(OC[C@H]1O[C@@](C#N)(c2ccc3c(N)ncnn23)[C@H](O)[C@@H]1O)Oc1ccccc1 |  | human liver microsomes | 1 µM, pH 7.4, with: NADPH | ~0.0167 h |
| CC(C)[C@H](N)C(=O)N[C@@H](Cc1ccccc1)C(=O)OC[C@H]1O[C@@H](n2cc(F)c(=O)[nH]c2=O)C[C@@H]1O |  | human pancreas homogenate | pH 7.4, 37 °C, protein 500 µg/mL | 0.895 ± 0.08 h |
| COc1ccc(-n2nc(C(N)=O)c3c2C(=O)N(c2ccc(N4CCCCC4=O)cc2)CC3)cc1 |  | healthy Chinese subjects | oral, 10 mg single and multiple | ~11 h |
| CC(C)[C@@H](N)C(=O)OC[C@H]1O[C@@H](n2cc(F)c(=O)[nH]c2=O)C[C@@H]1O |  | human pancreas homogenate | pH 7.4, 37 °C, protein 500 µg/mL | 5.81 ± 1.07 h |
| CC(C)(c1ccc(O)cc1)c1ccc(O)cc1 | GC-MS | exposure tank water with snails, reconstituted water | 500 ng/L nominal, 20 °C | 3.9 h |
| O=C(O)C[C@H](O)C[C@H](O)/C=C/c1c(C2CC2)nc2ccccc2c1-c1ccc(F)cc1 |  | healthy Chinese female volunteers, plasma | oral, 2 mg once daily, multiple dose | 12.9 h |
| COc1ccc(F)c(CCCC2CCC(CCNCCCCCN3N=C(c4ccc(OC)c(OC)c4)[C@H]4CC=CC[C@H]4C3=O)O2)c1 (some centres unmarked) |  | mouse liver microsomes | 40 µM, 37 °C, with: NADPH | > 1 h |
| Nc1nc(NC2CC2)c2ncn([C@H]3C=C[C@@H](CO)C3)c2n1 |  | HIV-infected children and adolescents, Tanner stage 1-2, plasma | oral, 8 mg/kg | 1.3 h |
| Cc1c(OS(=O)(=O)Oc2ccc(Oc3ccccc3)cc2)cccc1C(=O)NO |  | buffer with or without glutathione | 50 µM, pH 7.4, 37 °C, with: glutathione 2 mM | > 20 h |

| SMILES | test | test system | setting | half-life |
| --- | --- | --- | --- | --- |
| O=C(CCc1ccccc1)N[C@H]1CNC1=O |  | phosphate buffer, 10% MeCN | 1 µM, pH 5.0, 37 °C | > 24 h |
| NC(=O)c1cnc2[nH]ccc2c1N[C@@H]1[C@@H]2CC3C[C@H]1C[C@@](O)(C3)C2 |  | Japanese, normal hepatic function, plasma | oral, 150 mg single dose, mean | 10.4 h |
| O=C(CCCCCCC(=O)Nc1ccccc1)NO | LC-MS/MS | human, serum | oral, 600 mg twice daily | 2.2 h and 2.3 h |
| CCOc1cc([C@@H](CS(C)(=O)=O)N2C(=O)c3cccc(NC(C)=O)c3C2=O)ccc1O[C@@H]1O[C@H](C(=O)O)[C@@H](O)[C@H](O)[C@H]1O |  | severe renal impairment patients, plasma | oral, 30 mg of apremilast | 29.7 h |
| COc1ccc2c3c1O[C@H]1C[C@@H](OC(=O)c4ccccc4)C=C[C@@]31CCN(C)C2 |  | healthy elderly men, plasma | intranasal, 44 mg, single dose | 2.8 h |
| CC[C@H](C)[C@H](NC(=O)[C@H](C)NC(=O)[C@H](CCC(=O)O)NC(=O)[C@H](CCSC)NC(=O)[C@@H](NC(=O)[C@@H](N)C(C)C)[C@@H](C)O)C(=O)N[C@@H](CC(N)=O)C(=O)N[C@@H](CC(C)C)C(=O)N[C@@H](C)C(=O)N[C@@H](Cc1ccccc1)C(=O)N1CCC[C@H]1C(=O)NCC(=O)O | residual EphA4 binding inhibition | C2C12 conditioned medium | 500 µM, 37 °C | ~90 h |
| Nc1cc(F)ccc1NC(=O)c1ccc(CNC(=O)/C=C/c2cccnc2)cc1 |  | Japanese patients, plasma | oral, 40 mg twice weekly, cycle 1 day 25, arithmetic mean | 18.7 h |
| CCCCC[C@H](O)CC[C@@H]1[C@H]2Cc3cccc(OCC(=O)O)c3C[C@H]2C[C@H]1O |  | Japanese patients with PAH, plasma | inhaled, 54 µg four times daily, week 12 | 0.72 ± 0.11 h |
| O=C(COCc1cccnc1)C12CC3CC(CC(C3)C1)C2 |  | human liver microsomes | 37 °C, with: NADPH | > 2 h |
| CC(C(=O)O)c1ccc(-c2ccccc2)c(F)c1 (centres unmarked) |  | healthy volunteers, plasma | oral, 100 mg, arithmetic mean, with: control beverage 250 mL | 3.9 ± 1.1 h |
| COc1ccc([C@@H]2Sc3ccccc3N(CCN(C)C)C(=O)[C@@H]2OC(C)=O)cc1 |  | whole body | oral, high dose, depuration phase | 144 h |
| N[C@@H](Cc1ccccc1)C(=O)OC[C@H]1O[C@@H](n2cc(F)c(=O)[nH]c2=O)C[C@@H]1O |  | human pancreas homogenate | pH 7.4, 37 °C, protein 500 µg/mL | 0.365 ± 0.0467 h |
| COc1cc(OC)c(/C=C/S(=O)(=O)Cc2ccc(OC)c(NCC(=O)O)c2)c(OC)c1 |  | cancer patients, phase I, plasma | oral, 280 mg twice daily, day 21 cycle 1 | 5.29 ± 1.09 h |
| CCCc1ccc2c(c1)sc(=O)n2CCN1CCCCCC1 |  | rat liver microsomes | 1 µM, pH 7.4, 37 °C, with: NADPH | < 0.0167 h |
| Cc1ccc(N(C)C(=O)[C@H](Cc2ccccc2)NC(=O)CNC(=O)c2ccccc2)cc1 |  | mouse liver microsomes | 1 µM, pH 7.4, with: cobicistat 0.5 µM | 0.567 h |
| C=C(C)[C@@H]1CC[C@]2(NCCN3CCS(=O)(=O)CC3)CC[C@]3(C)[C@H](CC[C@@H]4[C@@]5(C)CC=C(C6=CC[C@@](CF)(C(=O)O)CC6)C(C)(C)[C@@H]5CC[C@]43C)[C@@H]12 |  | healthy adults, plasma | oral, 200 mg once daily, after day 7 dose, with: dolutegravir 50 mg | 23.4 h |
| O=C(CCc1ccccc1)N[C@H]1COC1=O |  | PBS, 10% MeCN | 1 µM, pH 7.4, 37 °C | 0.5 h |
| NC(=O)c1cnc2[nH]ccc2c1N[C@@H]1[C@@H]2CC3C[C@H]1C[C@@](O)(C3)C2 |  | healthy Japanese men, plasma | oral, 20 mg, single dose fasted | 3.7 h |
| Cn1cnc2c(F)c(Nc3ccc(Br)cc3Cl)c(C(=O)NOCCO)cc21 |  | ESRD on hemodialysis, plasma | oral, 50 mg single dose, dosed 1 h before dialysis | 5.81 h |
| C[C@]12C=CC(=O)C=C1CC[C@@H]1[C@@H]2[C@@H](O)C[C@@]2(C)[C@H]1C[C@H]1O[C@@H](C3CCCCC3)O[C@]12C(=O)CO |  | children with asthma, serum | inhaled, 160 µg ciclesonide, day 7, HFA-MDI without spacer | 3.02 ± 0.21 h |
| Cn1cnnc1SCC(=O)C12CC3CC(CC(C3)C1)C2 | metabolic stability | human liver microsomes | 37 °C, with: NADPH | 1.13 h |
| CN1C(=O)[C@@H](NC(=O)c2nnc(Cc3ccccc3)[nH]2)COc2ccccc21 |  | healthy men, plasma | oral, 60 mg once daily, day 14, geometric mean | 3.97 h |

Excerpt of the above:
| SMILES | test | test system | setting | half-life |
| --- | --- | --- | --- | --- |
| Cc1ccc(N(C)C(=O)[C@H](Cc2ccccc2)NC(=O)CNC(=O)c2ccccc2)cc1 |  | mouse liver microsomes | 1 µM, pH 7.4, with: cobicistat 0.5 µM | 0.567 h |
| C=C(C)[C@@H]1CC[C@]2(NCCN3CCS(=O)(=O)CC3)CC[C@]3(C)[C@H](CC[C@@H]4[C@@]5(C)CC=C(C6=CC[C@@](CF)(C(=O)O)CC6)C(C)(C)[C@@H]5CC[C@]43C)[C@@H]12 |  | healthy adults, plasma | oral, 200 mg once daily, after day 7 dose, with: dolutegravir 50 mg | 23.4 h |
| O=C(CCc1ccccc1)N[C@H]1COC1=O |  | PBS, 10% MeCN | 1 µM, pH 7.4, 37 °C | 0.5 h |
